Measurements of several laboratories.
Parts stem from different laboratories: compare values within a part only.
Sequence of UniProt P29322 (whole entry, looked up): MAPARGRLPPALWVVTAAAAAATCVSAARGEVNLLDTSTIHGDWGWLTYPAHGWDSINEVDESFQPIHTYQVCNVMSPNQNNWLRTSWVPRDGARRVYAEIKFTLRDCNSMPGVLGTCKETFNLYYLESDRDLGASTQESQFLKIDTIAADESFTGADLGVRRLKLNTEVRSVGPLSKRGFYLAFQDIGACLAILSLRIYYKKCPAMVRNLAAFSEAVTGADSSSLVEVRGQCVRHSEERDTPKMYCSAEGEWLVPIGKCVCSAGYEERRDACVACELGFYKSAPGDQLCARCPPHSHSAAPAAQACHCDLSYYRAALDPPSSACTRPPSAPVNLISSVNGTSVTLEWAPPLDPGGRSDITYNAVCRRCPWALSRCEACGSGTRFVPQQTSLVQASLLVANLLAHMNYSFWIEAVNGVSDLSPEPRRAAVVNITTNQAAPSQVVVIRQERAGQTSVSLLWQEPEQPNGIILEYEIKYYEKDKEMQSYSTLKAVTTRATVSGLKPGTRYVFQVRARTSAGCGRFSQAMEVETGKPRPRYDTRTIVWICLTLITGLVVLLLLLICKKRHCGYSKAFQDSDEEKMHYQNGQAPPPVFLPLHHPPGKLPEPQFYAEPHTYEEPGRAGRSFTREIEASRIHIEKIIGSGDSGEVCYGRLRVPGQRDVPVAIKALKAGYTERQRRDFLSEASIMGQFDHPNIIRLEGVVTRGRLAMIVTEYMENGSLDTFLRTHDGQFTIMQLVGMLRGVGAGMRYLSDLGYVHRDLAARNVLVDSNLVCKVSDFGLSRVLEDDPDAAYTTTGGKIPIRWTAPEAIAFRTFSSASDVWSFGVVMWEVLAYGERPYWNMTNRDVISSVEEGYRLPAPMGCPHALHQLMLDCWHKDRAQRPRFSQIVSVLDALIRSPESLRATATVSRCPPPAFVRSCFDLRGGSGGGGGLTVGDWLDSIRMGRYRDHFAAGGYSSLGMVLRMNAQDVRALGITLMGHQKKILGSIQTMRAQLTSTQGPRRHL
Sequence of UniProt Q9H1R3 (whole entry, looked up): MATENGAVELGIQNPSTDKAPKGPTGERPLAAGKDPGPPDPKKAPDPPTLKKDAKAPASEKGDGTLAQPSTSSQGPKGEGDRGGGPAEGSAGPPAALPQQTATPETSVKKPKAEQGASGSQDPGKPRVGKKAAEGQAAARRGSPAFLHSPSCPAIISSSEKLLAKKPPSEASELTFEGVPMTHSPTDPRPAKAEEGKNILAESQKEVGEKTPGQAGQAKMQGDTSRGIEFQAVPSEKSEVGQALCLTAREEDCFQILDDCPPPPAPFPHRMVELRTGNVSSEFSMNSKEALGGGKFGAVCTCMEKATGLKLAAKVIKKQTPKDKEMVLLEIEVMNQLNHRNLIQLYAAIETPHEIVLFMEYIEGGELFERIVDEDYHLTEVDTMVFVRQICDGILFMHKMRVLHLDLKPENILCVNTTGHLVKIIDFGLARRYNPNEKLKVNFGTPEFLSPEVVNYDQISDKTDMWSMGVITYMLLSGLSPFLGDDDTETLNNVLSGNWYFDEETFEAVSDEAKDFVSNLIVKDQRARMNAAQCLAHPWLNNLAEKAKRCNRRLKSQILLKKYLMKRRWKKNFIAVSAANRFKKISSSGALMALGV
Sequence of UniProt P29597 (whole entry, looked up): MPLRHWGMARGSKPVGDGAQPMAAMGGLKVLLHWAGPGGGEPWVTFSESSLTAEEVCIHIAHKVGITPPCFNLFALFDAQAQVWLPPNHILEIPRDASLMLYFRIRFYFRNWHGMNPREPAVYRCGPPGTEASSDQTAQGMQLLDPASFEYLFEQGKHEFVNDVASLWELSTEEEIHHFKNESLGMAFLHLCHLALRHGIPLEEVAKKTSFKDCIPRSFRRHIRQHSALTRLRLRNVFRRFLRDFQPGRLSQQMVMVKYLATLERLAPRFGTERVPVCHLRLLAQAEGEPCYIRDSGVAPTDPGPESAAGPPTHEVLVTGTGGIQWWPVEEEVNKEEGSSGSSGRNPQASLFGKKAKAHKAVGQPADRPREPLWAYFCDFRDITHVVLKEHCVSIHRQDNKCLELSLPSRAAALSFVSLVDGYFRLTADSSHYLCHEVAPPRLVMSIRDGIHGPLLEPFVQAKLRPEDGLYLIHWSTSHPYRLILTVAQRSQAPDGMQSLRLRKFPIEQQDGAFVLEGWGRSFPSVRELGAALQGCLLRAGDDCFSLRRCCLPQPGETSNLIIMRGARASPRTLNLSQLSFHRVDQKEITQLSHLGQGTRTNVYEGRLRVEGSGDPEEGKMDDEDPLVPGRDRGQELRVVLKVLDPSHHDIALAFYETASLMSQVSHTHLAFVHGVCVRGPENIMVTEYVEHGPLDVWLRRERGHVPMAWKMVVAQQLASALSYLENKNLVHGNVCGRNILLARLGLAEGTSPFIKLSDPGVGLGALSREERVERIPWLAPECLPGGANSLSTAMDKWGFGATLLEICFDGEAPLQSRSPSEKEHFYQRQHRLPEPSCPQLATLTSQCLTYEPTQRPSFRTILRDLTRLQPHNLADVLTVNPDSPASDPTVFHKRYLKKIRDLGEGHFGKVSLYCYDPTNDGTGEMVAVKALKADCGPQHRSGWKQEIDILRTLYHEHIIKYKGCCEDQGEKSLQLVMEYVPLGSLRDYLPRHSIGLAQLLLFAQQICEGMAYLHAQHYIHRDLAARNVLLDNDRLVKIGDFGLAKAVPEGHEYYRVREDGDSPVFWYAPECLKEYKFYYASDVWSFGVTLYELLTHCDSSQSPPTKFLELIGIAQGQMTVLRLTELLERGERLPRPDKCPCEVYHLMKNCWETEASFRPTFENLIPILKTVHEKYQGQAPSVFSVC
Sequence of UniProt Q9BZL6 (whole entry, looked up): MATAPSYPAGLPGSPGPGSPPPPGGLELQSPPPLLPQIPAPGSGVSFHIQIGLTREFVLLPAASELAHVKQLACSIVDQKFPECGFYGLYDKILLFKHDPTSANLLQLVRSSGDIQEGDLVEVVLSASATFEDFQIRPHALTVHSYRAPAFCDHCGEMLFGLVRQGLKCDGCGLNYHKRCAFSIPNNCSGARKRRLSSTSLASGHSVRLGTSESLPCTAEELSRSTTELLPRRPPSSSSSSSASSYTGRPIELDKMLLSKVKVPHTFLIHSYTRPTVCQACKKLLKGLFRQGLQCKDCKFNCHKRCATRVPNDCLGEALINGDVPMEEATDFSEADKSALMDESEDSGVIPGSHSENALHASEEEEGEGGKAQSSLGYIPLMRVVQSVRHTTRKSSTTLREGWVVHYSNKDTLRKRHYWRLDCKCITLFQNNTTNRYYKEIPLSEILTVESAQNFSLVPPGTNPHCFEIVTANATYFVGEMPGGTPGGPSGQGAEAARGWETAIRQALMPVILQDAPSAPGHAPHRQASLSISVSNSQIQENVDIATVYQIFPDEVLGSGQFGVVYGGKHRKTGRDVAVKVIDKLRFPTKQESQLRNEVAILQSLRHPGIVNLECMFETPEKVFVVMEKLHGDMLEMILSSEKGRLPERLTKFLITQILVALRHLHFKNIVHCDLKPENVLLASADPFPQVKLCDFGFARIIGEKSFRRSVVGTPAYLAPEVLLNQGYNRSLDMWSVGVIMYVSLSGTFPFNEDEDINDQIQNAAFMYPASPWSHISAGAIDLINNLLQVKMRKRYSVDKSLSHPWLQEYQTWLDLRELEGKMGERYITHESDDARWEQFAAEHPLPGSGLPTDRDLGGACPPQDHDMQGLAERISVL
Sequence of UniProt Q9Y6E0 (whole entry, looked up): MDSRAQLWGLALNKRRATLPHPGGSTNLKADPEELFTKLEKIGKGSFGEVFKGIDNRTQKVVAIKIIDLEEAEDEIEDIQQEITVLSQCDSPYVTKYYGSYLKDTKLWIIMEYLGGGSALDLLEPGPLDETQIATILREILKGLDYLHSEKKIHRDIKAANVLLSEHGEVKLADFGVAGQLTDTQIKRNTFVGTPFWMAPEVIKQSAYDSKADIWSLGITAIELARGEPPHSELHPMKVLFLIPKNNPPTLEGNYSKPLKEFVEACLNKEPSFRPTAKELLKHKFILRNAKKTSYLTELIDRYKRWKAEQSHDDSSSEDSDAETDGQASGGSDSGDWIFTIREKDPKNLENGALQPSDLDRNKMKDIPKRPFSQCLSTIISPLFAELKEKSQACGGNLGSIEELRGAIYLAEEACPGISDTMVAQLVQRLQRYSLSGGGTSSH
Sequence of UniProt Q13555 (whole entry, looked up): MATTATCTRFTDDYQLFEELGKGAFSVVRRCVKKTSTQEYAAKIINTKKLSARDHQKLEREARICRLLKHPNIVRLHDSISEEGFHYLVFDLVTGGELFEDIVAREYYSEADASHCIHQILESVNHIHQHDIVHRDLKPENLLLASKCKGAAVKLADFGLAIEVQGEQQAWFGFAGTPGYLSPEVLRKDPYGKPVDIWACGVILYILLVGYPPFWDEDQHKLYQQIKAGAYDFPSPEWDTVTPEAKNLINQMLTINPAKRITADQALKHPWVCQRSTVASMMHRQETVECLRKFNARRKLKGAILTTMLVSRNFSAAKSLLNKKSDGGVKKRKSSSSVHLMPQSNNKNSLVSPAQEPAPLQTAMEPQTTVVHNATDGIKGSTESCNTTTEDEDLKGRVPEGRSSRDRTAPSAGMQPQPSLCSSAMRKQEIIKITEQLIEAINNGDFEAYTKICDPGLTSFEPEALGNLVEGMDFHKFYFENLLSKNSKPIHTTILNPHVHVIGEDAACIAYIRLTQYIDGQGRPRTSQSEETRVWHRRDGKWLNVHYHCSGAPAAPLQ

Block 1
Compound: COc1ccc2c(c1)/C(=C/c1cnc[nH]1)C(=O)N2
Effect on: enzyme activity
Action: inhibitor
Concentration: 0.5 µM
Reference: control
target	remaining activity [%]
EPHA1 (Homo sapiens, UniProt P21709)	97.3
PRKD2 (Homo sapiens, UniProt Q9BZL6)	60.2
STK24 (Homo sapiens, UniProt Q9Y6E0)	53.1
MAPK8 (Homo sapiens, UniProt P45983)	95.9
TYK2 (Homo sapiens, UniProt P29597)	45
EPHA8 (Homo sapiens, UniProt P29322)	103
ERBB4 (Homo sapiens, UniProt Q15303)	106
CAMK2G (Homo sapiens, UniProt Q13555)	94.6
MYLK2 (Homo sapiens, UniProt Q9H1R3)	21

Block 2
Organism: Vesicular stomatitis virus
Effect on: pseudovirus infection
Concentration: concentration not given
Notes: VSV-G control pseudotype
Reference: vehicle
Compound	GFP-positive cells [%]
CC(CN(C)C)CN1c2ccccc2Sc2ccccc21.CC(CN(C)C)CN1c2ccccc2Sc2ccccc21.O=C(O)C(O)C(O)C(=O)O (stereo not shown)	104
NCC[C@H](O)C(=O)N[C@@H]1C[C@H](N)[C@@H](O[C@H]2O[C@H](CN)[C@@H](O)[C@H](O)[C@H]2O)[C@H](O)[C@H]1O[C@H]1O[C@H](CO)[C@@H](O)[C@H](N)[C@H]1O.O=S(=O)(O)O.O=S(=O)(O)O	126
O=C1CN(/N=C/c2ccc(-c3ccc([N+](=O)[O-])cc3)o2)C(=O)[N-]1.[Na+]	109
CCN[C@@H]1C[C@H](N)[C@@H](O[C@H]2OC(CN)=CC[C@H]2N)[C@H](O)[C@H]1O[C@H]1OC[C@](C)(O)[C@H](NC)[C@H]1O.CCN[C@@H]1C[C@H](N)[C@@H](O[C@H]2OC(CN)=CC[C@H]2N)[C@H](O)[C@H]1O[C@H]1OC[C@](C)(O)[C@H](NC)[C@H]1O.O=S(=O)(O)O.O=S(=O)(O)O.O=S(=O)(O)O.O=S(=O)(O)O.O=S(=O)(O)O	119
Cc1cc(C#N)cc(C)c1Oc1nc(Nc2ccc(C#N)cc2)nc(N)c1Br	22.8
CC(C)C[C@H](NC(=O)CNC(=O)c1cc(Cl)ccc1Cl)B(O)O	7.99
CO[C@H]1C[C@@H]2CC[C@@H](C)[C@@](O)(O2)C(=O)C(=O)N2CCCC[C@H]2C(=O)O[C@H]([C@H](C)C[C@@H]2CC[C@@H](OC(=O)C(C)(CO)CO)[C@H](OC)C2)CC(=O)[C@H](C)/C=C(\C)[C@@H](O)[C@@H](OC)C(=O)[C@H](C)C[C@H](C)/C=C/C=C/C=C/1C	91.8
COC(=O)c1ccc2c(c1)NC(=O)/C2=C(\Nc1ccc(N(C)C(=O)CN2CCN(C)CC2)cc1)c1ccccc1	150
COCCc1ccc(OCC(O)CNC(C)C)cc1.COCCc1ccc(OCC(O)CNC(C)C)cc1.O=C(O)CCC(=O)O (stereo not shown)	96
C[C@H]1O[C@]2(CS1)CN1CCC2CC1.C[C@H]1O[C@]2(CS1)CN1CCC2CC1.Cl.Cl.O	99.7
Cc1nc2c([nH]1)-c1ccccc1N(C(=O)c1ccc(NC(=O)c3ccccc3-c3ccccc3)cc1)CC2.Cl	105
Cl.O=C1[C@@H]2[C@H]3CC[C@H](C3)[C@@H]2C(=O)N1C[C@@H]1CCCC[C@H]1CN1CCN(c2nsc3ccccc23)CC1	109
CC[C@H]1OC(=O)[C@H](C)[C@@H](O[C@H]2C[C@@](C)(OC)[C@@H](O)[C@H](C)O2)[C@H](C)[C@@H](O[C@@H]2O[C@H](C)C[C@H](N(C)C)[C@H]2O)[C@](C)(O)C[C@@H](C)CN(C)[C@H](C)[C@@H](O)[C@]1(C)O	112
CC(C)C(=O)OCC(=O)[C@@]12O[C@H](C3CCCCC3)O[C@@H]1C[C@H]1[C@@H]3CCC4=CC(=O)C=C[C@]4(C)[C@H]3[C@@H](O)C[C@@]12C	113
Cc1[nH]c2ccccc2c1CCNCc1ccc(/C=C/C(=O)NO)cc1	75.9
C[C@@H](O)[C@@H]1NC(=O)[C@H](CCCCN)NC(=O)[C@@H](Cc2c[nH]c3ccccc23)NC(=O)[C@H](Cc2ccccc2)NC(=O)[C@@H](NC(=O)[C@H](N)Cc2ccccc2)CSSC[C@@H](C(=O)N[C@H](CO)[C@@H](C)O)NC1=O	106
CC(C)CN(C[C@@H](O)[C@H](Cc1ccccc1)NC(=O)O[C@H]1CO[C@H]2OCC[C@H]21)S(=O)(=O)c1ccc(N)cc1.CCO	105

Block 3
Cell line: HEK-293T-ACE2-TMPRSS2
Technique: cell count
Concentration: 10 µM
Compound	viability [%]
Cc1ncsc1CCN(C)C(=O)[C@H]1Cc2ccccc2CN1	68
CC(C)C[C@@H](C=O)NC(=O)[C@H](CC(C)C)NC(=O)[C@H](CC(C)C)NC(=O)OCc1ccccc1	136
O=C(NC1CCN(Cc2ccccc2)CC1)c1cc2c(=O)n(Cc3ccccc3)ccc2s1	215
COCCc1noc([C@@H]2CN(C3CCCC3)C[C@H]2CO)n1	95
CN1CCN(C(=O)c2ccc3oc(Cc4ccccc4)nc3c2)CC1c1ccccc1 (stereo not shown)	107
CN(CCCNC(=O)c1cc2c(s1)-c1ccc(Cl)cc1SC2)Cc1ccccc1	93
CNC(=O)NC(=O)Cn1ncc(Cl)c(Cl)c1=O	70
Cc1oc2c(c1C(=O)N1CCCC1)C(=O)c1ccccc1C2=O	76
N#Cc1c(Cl)c(Cl)c(Cl)c(Cl)c1C#N	73
COc1cccc(OC)c1C(=O)Nc1cc2c(c([N+](=O)[O-])c1C)C(C)(C)CC2(C)C	77
CN(c1ccc([N+](=O)[O-])cc1S(=O)(=O)N1CCOCC1)C1CCCCC1	90
O=C(O)c1csc(Cc2ccc(Cl)cc2)n1	65
COc1ccc([N+](=O)[O-])c(S(=O)(=O)c2ccc(Cl)cc2)n1	65
FC(F)(F)c1ccnc(Oc2ccc(CN3CCCC3)cc2Cl)c1	76
Cc1noc([C@@H]2CN(Cc3ccc(OC(F)(F)F)cc3)C[C@H]2CO)n1	107
CC1CCN(c2nccnc2Oc2ccc(C(=O)N3CCN(C(=O)c4ccco4)CC3)cc2)CC1	107
Cc1noc(C)c1C(=O)N1C[C@@H](CO)[C@H](c2ccncc2)C1	112
CCCCc1cc(=O)oc2c(C)c(O)ccc12	76
O=C(c1ccc(Cl)cc1)N1C[C@@H](CO)[C@H](c2nc(C3CC3)no2)C1	92

Other studies, line by line
Structure (SMILES)	target	effect on	technique	concentration	endpoint	value
CCCCN(CCCC)C(=O)CN1C[C@@H](c2cc(OC)c3c(c2)OCO3)[C@H](C(=O)O)[C@H]1CC(C)(C)CCC	Calcium-dependent protein kinase 1 (CDPK1, Plasmodium falciparum, UniProt P62344)	cell-free assay	competition with immobilised ligand	1 µM	remaining binding	86.9%

For quick reference, copied from above (block 1):
target	remaining activity [%]
MAPK8 (Homo sapiens, UniProt P45983)	95.9
CAMK2G (Homo sapiens, UniProt Q13555)	94.6
STK24 (Homo sapiens, UniProt Q9Y6E0)	53.1
EPHA8 (Homo sapiens, UniProt P29322)	103
ERBB4 (Homo sapiens, UniProt Q15303)	106
EPHA1 (Homo sapiens, UniProt P21709)	97.3
